Measurements gathered from unrelated publications.
Lines come from different studies, so protocols differ.
Target: Acetylcholinesterase (ACHE, Homo sapiens, UniProt P22303)

`CCOC(=O)[C@](CC)(CCCSCCOCCOCCNC(=O)c1ccc(-c2c3ccc(=N)c(S(=O)(=O)O)c-3oc3c(S(=O)(=O)O)c(N)ccc23)c(C(=O)O)c1)NC(=O)c1ccc(C2CC2)c(Cc2ccc(F)cc2)n1` has an inhibition of -5% (enzyme activity, inhibitor; 10 µM).
The inhibition of `CCN(CC)CCOc1ccc(-c2nnn(Cc3ccc(OC)cc3)c2N)cc1` is reported as -0.97% (concentration not given).
The inhibition of `CCCCNC(=O)c1ccc2nc(CC)c(N(C)Cc3ccc(OC)cc3)n2c1` is reported as 40% (enzyme activity, inhibitor; SH-SY5Y; concentration not given).
`COc1ccc(F)cc1S(=O)(=O)Nc1cnc2c(c1)C(=O)NCCO2` gave an inhibition of 1% (enzyme activity, inhibitor; 10 µM).
`O=C(Nc1cccnc1)c1cccc(C2(CNCc3ccc(F)c(F)c3)CC2)c1` has an inhibition of 28% (enzyme activity, inhibitor; SH-SY5Y; IC50 concentration).
The inhibition of `COc1ccc(C#CC2=C[C@H]3C[C@@]4(OC(=O)C=C24)[C@H]2CC[C@H](C(OC)OC)N32)cc1` is reported as 0% (enzyme activity, inhibitor; 10 µM).
The inhibition of `O=C(c1cc(Cc2n[nH]c(=O)c3ccccc23)ccc1F)N1CC(CNC2CC2)C1` is reported as 37% (enzyme activity, inhibitor; 10 µM).
The inhibition of `Cc1cnc(C2CCOCC2)n1C1CCN(C(=O)Nc2ccccc2F)CC1` is reported as 16.8% (enzyme activity, inhibitor, Ellman; 10 µM).
With `N[C@H](C(=O)N1CCCC1)C1CCN(c2nccc3c(-c4ncc(Cl)cc4Cl)cccc23)CC1` the inhibition was 5% (enzyme activity, inhibitor; 10 µM).
`Cc1ccc2cc(C(=O)N3CCCC3Cn3ccnc3)ccc2n1` (stereo not shown) has an inhibition of 21% (enzyme activity, inhibitor, Ellman; 10 µM).
The inhibition of `CCc1nc2ccc(C(=O)NCCCn3ccnc3)cn2c1N(C)Cc1ccc(N(C)C)cc1` is reported as 10% (enzyme activity, inhibitor; SH-SY5Y; IC50 concentration).
For `CCC(O)CN1CCN(C(=O)Cc2cn3ccccc3n2)CC1` (stereo not shown), the inhibition was 15.1% (enzyme activity, inhibitor, Ellman; 10 µM).
Under inhibition, `Cc1cc(-c2ccc3ccccc3c2)nnc1NCCN1CCN(C)CC1` is recorded as “negative” (enzyme activity, inhibitor; concentration not given).

Excerpt of the above:
The inhibition of `CCN(CC)CCOc1ccc(-c2nnn(Cc3ccc(OC)cc3)c2N)cc1` is reported as -0.97% (concentration not given).
